Experimental data of several laboratories.
Numbered parts are unrelated; each lists some results of a single study. Changes are numbered by the printed parent chain.

Study 1
Target: Centromere-binding protein 1, full length, His-tagged (CBF1, Saccharomyces cerevisiae, UniProt P17106, residues 1-351)
UniProt P17106, sequence (whole entry, looked up): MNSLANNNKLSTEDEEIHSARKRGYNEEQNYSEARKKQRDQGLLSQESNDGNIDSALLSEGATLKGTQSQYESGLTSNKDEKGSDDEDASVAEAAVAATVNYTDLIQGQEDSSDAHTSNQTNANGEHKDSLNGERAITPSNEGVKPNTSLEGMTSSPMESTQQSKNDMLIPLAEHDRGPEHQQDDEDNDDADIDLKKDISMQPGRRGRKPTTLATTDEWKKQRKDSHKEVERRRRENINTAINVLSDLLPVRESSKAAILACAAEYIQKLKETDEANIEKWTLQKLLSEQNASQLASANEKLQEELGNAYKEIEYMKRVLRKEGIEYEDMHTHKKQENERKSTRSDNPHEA
Method: competition protein-binding microarray
Form: double-stranded DNA, one strand shown
Medium: in vitro
Tested at: 2 µM
Setting: whole 60-bp probe, lowest competitor level
With: Pho4 competitor, 0.05 µM
Reading: higher = stronger binding
The fluorescence intensity of `TGCGCAACAACTTGTCGCGTGGGTGTATGTCTAGAAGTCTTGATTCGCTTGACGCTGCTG` is reported as 88.4 a.u.
`CGGGGTTAAGTTTGTTACGTGGGTGGCTTGCAGCAGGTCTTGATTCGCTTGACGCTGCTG` gave a fluorescence intensity of 67.5 a.u.
For `TCGCCCAATGAGACGCACAATCAAGGCTATGGCTCGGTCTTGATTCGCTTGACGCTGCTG`, the fluorescence intensity was 56.6 a.u.
`TGCGCAACAACTTGTCACTGGACTTTATGTCTAGAAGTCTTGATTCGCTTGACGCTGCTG` has a fluorescence intensity of 86.3 a.u.
`CCACCATCGTTACCAAATGTGACGGCTGCACCTAAAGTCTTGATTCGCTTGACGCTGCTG` gave a fluorescence intensity of 79 a.u.
`CGACGCACCGAACGATACGGGGCTTGGCTGTTTTATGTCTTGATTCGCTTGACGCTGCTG` gave a fluorescence intensity of 81 a.u.
`TAGATCCCTGTCCGTCACCTGAGTGTCCGTTTCAGGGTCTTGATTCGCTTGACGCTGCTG` has a fluorescence intensity of 108 a.u.
For `TCCTTAATGCCCAAGCACATGGGTCAGGGTTCATTAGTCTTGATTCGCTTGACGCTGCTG`, the fluorescence intensity was 77.3 a.u.
For `CTTTCCCGATCTTGCGAGGTGGGTGTAGCACATTTGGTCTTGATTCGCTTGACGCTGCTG`, the fluorescence intensity was 63.9 a.u.
The fluorescence intensity of `TAATCAAGCTTTCGGCACGTGGTGAGCCAAGTTGTGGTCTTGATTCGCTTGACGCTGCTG` is reported as 1570 a.u.
With `CTTTCCCGATCTTGTCACAGAACTTTAGCACATTTGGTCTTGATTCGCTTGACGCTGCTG` the fluorescence intensity was 86.6 a.u.
`ATCAAGACGGGATTGCACACGCATTAACAACAACTCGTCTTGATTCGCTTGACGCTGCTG` has a fluorescence intensity of 72.5 a.u.
`TTTCTTCGTCTTCGTCCCGTGAGTCCGGACTCAGAAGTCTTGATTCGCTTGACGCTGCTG` gave a fluorescence intensity of 117 a.u.
`GTCTTGTCTCATTTTCACGTGTCGTTCCCCACTTCAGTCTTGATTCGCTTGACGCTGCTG` gave a fluorescence intensity of 785 a.u.
`CGGGGTTAAGTTTGTCACTCGACTTGCTTGCAGCAGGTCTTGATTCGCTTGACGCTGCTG` has a fluorescence intensity of 53.3 a.u.
The fluorescence intensity of `CGGGGTTAAGTTTGGCCGGTGGGTGGCTTGCAGCAGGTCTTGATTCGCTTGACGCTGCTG` is reported as 80.7 a.u.
`GCGACTATGGTATTTCTCGTGATGGGCCTGAAGGTTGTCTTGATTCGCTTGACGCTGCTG` gave a fluorescence intensity of 126 a.u.
`AAATTACTAAGTTGTTAGGTGGGTGACGCCGTATGAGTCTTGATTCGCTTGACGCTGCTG` has a fluorescence intensity of 75.6 a.u.
For `CAACAAGCCTGTTACACCATGACAACAGATCCTTCTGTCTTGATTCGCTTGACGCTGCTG`, the fluorescence intensity was 76.1 a.u.
`CTAACGAAGGTTTGTCACCTAACTTACAAGCCAAGTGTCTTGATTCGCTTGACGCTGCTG` gave a fluorescence intensity of 70.8 a.u.
For `CATACCCAACCTTGGAGAGTGGGTGAAGATATTTGTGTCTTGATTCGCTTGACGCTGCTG`, the fluorescence intensity was 75.7 a.u.
With `TAAGGAAGGATATGGCACACGCTTGTGTTCAAGAATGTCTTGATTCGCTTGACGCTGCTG` the fluorescence intensity was 71 a.u.
`CGCTTCCCAGCTTTTCACGTGCGATGTGGACTAATAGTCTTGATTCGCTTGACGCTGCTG` gave a fluorescence intensity of 862 a.u.
For `CAGAACAGGTTTGTATTCGTGATGGTGTCCCTGAAGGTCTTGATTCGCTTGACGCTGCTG`, the fluorescence intensity was 76.2 a.u.
With `AGGGTAACATACCATCACGTGCAAACCAGGATAATTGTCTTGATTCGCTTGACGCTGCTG` the fluorescence intensity was 4000 a.u.

Study 2
Target: Ras GTPase-activating protein-binding protein 1, full length (G3BP1, Homo sapiens, UniProt Q13283)
UniProt Q13283, sequence (whole entry, looked up): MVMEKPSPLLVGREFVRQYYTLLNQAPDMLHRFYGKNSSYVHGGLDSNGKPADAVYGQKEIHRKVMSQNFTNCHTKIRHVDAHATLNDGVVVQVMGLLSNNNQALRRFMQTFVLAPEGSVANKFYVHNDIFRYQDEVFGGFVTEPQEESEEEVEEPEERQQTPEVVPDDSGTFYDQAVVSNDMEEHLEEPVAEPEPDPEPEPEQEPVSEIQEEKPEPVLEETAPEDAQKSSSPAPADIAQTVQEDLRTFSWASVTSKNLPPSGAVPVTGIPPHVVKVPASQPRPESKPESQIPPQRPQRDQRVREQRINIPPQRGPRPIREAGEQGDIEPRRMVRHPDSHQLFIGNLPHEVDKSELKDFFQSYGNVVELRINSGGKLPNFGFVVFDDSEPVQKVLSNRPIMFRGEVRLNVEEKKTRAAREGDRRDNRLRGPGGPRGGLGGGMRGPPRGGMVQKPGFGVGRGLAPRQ
Method: RNA Bind-n-Seq
Form: RNA
Medium: in vitro
Tested at: 200 nM
Setting: whole 134-nt RNA, ends assumed
With: 150 mM KCl
Baseline: input library
Reading: higher = stronger binding
`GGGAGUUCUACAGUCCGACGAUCCAAGUCCUGUGCUACACAUCGUAUGUACCGAAUCGGGGCCGGGGCCGGGGCCGGGGAAAGUAUUAUGUUACGCCGUUCGGAUCUGCACUUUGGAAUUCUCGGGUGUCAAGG` has a log2 enrichment of -0.8.
`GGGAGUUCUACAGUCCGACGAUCCUGUGCUACACAUCGUAUGUACCGAAUCGGGGUUUUUUUGGGUUUUUUUGGGUUUUUUUGGAAAGUAUUAUGUUACGCCGUUCGGAUCUGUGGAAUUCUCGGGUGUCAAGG` gave a log2 enrichment of -0.741.
With `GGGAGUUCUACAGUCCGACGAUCUGGGAUGUGGAUUUUGUUUAUUUUUUUAGCUCAUUUCCAGGGGUGGGAAUUUUUUUUUAAUAUGUGUCAUGAAUAAAGUUGUUUUUGAAAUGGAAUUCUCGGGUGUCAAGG` the log2 enrichment was -0.526.
For `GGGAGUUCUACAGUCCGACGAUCCUCAAGUCCUGUGCUACACAUCGUAUGUACCGAAUCGGUUUUUGGUUUGGAGGAAAGUAUUAUGUUACGCCGUUCGGAUCUGCACUUCCAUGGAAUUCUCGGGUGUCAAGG`, the log2 enrichment was -0.668.
For `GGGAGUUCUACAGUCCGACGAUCCCUGUGCUACACAUCGUAUGUACCGAAUCGGGGUUUUUGGGGUUUGGGGAAAAAAAGGGGAAAGUAUUAUGUUACGCCGUUCGGAUCUGCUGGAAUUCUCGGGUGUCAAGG`, the log2 enrichment was -0.00686.
`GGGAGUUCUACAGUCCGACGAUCAAGUCCUGUGCUACACAUCGUAUGUACCGAAUCGGGGAAAAGGAAAAGGGGAAAAGGAAAGUAUUAUGUUACGCCGUUCGGAUCUGCACUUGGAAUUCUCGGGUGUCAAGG` has a log2 enrichment of -0.544.
The log2 enrichment of `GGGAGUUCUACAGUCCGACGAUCCAAGUCCUGUGCUACACAUCGUAUGUACCGAAUCGGGGAAAGGGGAAAGGAAAGGAAAGUAUUAUGUUACGCCGUUCGGAUCUGCACUUCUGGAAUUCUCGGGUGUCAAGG` is reported as -0.414.
The log2 enrichment of `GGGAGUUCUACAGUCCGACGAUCUGGGAGGUGGAUUUUGUUUAUUUUUUUAUCUCAUUUCCAGGGGUGGGAAUUUUUUUUUAAUAUGUGUCAUGAAUAAAGUUGUUUUUGAAAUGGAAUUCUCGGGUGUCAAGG` is reported as 0.103.
With `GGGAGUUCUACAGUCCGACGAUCACCAUGCAGGUGGGCAUCUUUGGGAAGUGGGGCAAGGGGGGGAUAGGGAGGGGGGUAACACUUUGGGAACAGGUGGUCCCAGGUCGUAUCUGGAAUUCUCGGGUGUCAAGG` the log2 enrichment was 1.06.
For `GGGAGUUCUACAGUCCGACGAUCAAGUCCUGUGCUACACAUCGUAUGUACCGAAUCGGGGUGGGGUGGGGAAAAAGGGGAAAGUAUUAUGUUACGCCGUUCGGAUCUGCACUUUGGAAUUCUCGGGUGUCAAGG`, the log2 enrichment was 0.645.

Study 3
Target: CCNF, cyclin fold, Cln2 fusion (human)
Method: yeast growth competition, sequencing
Medium: yeast
Setting: strong parent motif
Baseline: not given
Reading: higher = stronger binding
Starting sequence: CDC6 docking peptide (human); TLKGRRLVFDNQL
For `F9G`, “normalised enrichment score” read 0.283.
`R5G`: “normalised enrichment score” 0.395.
For `T1V`, “normalised enrichment score” read 10.
`N11G` — result for “normalised enrichment score”: 7.91.
`V8E`: “normalised enrichment score” 7.97.
For `T1M`, “normalised enrichment score” read 11.4.
Under “normalised enrichment score”, `F9P` is recorded as 0.854.
For `N11Q`, “normalised enrichment score” read 9.09.
Under “normalised enrichment score”, `R5M` is recorded as 1.21.
Under “normalised enrichment score”, `G4K` is recorded as 4.27.
`R5W`: “normalised enrichment score” -0.52.
For `G4P`, “normalised enrichment score” read 8.08.
`Q12A` — result for “normalised enrichment score”: 9.3.
`D10K`: “normalised enrichment score” 7.27.
For `Q12S`, “normalised enrichment score” read 8.09.
`D10I`: “normalised enrichment score” 7.99.
Under “normalised enrichment score”, `G4C` is recorded as 8.22.
`R5E` — result for “normalised enrichment score”: 0.454.
`Q12M`: “normalised enrichment score” 8.76.
`R6F` — result for “normalised enrichment score”: 4.64.
Under “normalised enrichment score”, `R6A` is recorded as 6.57.
For `V8P`, “normalised enrichment score” read 1.65.
`D10Q`: “normalised enrichment score” 6.52.
Under “normalised enrichment score”, `K3I` is recorded as 8.81.
Under “normalised enrichment score”, `R5A L7A` is recorded as 0.218.

Study 4
Target: RNA binding protein fox-1 homolog 2, RRM domain, GST-SBP tag (RBFOX2, Homo sapiens, UniProt O43251-10, residues 100-194)
Method: RNA Bind-n-Seq
Form: RNA
Medium: in vitro
Tested at: 365 nM
Setting: natural RNA segment, single round, ends assumed
Baseline: no-protein control
Reading: higher = stronger binding
Residues (chain): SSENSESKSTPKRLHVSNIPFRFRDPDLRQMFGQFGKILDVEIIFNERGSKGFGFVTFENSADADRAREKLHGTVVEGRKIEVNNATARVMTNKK
Under “RBNS enrichment (R)”, `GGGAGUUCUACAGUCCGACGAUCACAUAAGUUCCUUCUUCUGUAGUCCCCCCCAAAAAACCUCAGAAACCUCAUAAUUCUCACACAUGGCAUUUCUAAUGACAGGCAGGCCCUCUUCCAUGGUGCCGGCCAGAUGGAAUUCUCGGGUGCCAA` is recorded as 0.387.
For `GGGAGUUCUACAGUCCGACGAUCUGGGGCCUCCACUGCUUUUCUAUGGGAGACACUCUUAAUUUAACAGAUGAGAAUAUUUUGAAACUCUGUUCUGACUCUGUACUCAUUUUUUUAUUUAGCUCUUCGGUAAGUGGAAUUCUCGGGUGCCAA`, “RBNS enrichment (R)” read 0.608.
`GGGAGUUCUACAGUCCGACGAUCCAUCUUUCUGCCUGUCACCGGGUGUGCUGUUUUUCUGAAAAAAAAACAGGCCCCAAGGGCCCUGAGCCUCCAGCCCAAACCCUUAGACCUCUGGGAUCACGUUGAGUUCUUGGAAUUCUCGGGUGCCAA`: “RBNS enrichment (R)” 0.234.
Under “RBNS enrichment (R)”, `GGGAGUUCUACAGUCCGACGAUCAUGUGUAGUGUUGAUUGACACAUUAAGACUAGCAGUCUUUAAUCCUGCCACUUUAUUGAGGUGUUAUUAGCACUUUUGUUCAUAAUUCAUAAUUUUGUAAUAAUCUUUAUUGGAAUUCUCGGGUGCCAA` is recorded as 0.616.
Under “RBNS enrichment (R)”, `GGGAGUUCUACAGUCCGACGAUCGCCCAGCACUUUGUAGUCUCAUCCCAGAUUACUAACCCUUCCUGAUCCUGGAGAGGCAGGGAUAGUAAAUAAAUUGCUCUUCCUACCCCAUCCCCCAUCCCCUGACAAAAUGGAAUUCUCGGGUGCCAA` is recorded as 1.02.
Under “RBNS enrichment (R)”, `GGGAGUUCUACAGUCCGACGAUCCAUGCAGUAGCAUUGUAUAGCAACUAGUGCAUUUCAUACUGUAUUAAAUAUGGCACUGCUUCUAAGCCUCGUUCCAGUUAAGUUUCACAUGACAGUUAGCUCCUCUGACCUGGAAUUCUCGGGUGCCAA` is recorded as 0.296.
`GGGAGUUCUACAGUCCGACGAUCGUGGAAAAAUAAAGUACAUUUUGAAGUAUCUUGAGGGUUGGGUCAAUUGAGACAUUUCUAGCAUUACUUAAUGACUUGCAUUGUGGUUUUUCUGCAAGCAACUUUAAUGAUGGAAUUCUCGGGUGCCAA` — result for “RBNS enrichment (R)”: 1.77.
For `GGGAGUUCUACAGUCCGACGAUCAGCCUGGUCUACAGAGUAAGUUCUAGGACCAAACCCAAAAAAUAAAGCAAAAACAAAAGGAGGUAUUAAGUCCAGUUUCCAGGCUACUUGCUGUGUACAUCAAGAAAAUUUGGAAUUCUCGGGUGCCAA`, “RBNS enrichment (R)” read 0.297.
`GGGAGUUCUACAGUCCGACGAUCCUCCACAGCCUGUGCUCUGUUCAGUUCCCAACACAAUCGACAAUAAACGGUGAUGCCCAUUCGGAAGAGCCUCCUGUGAGUCGUCUUUUUGUUGAAAGAAAUGGGUGGGGUGGAAUUCUCGGGUGCCAA` — result for “RBNS enrichment (R)”: 1.81.
Under “RBNS enrichment (R)”, `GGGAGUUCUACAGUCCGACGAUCUUUAUACCAAGAGAUUCUUCUAGAUCUCAUUGAUCCUUUUGAAGAGCUUUUUCUAUAUUAGGAUAUCAGAAUUGUUCAACUUUUCACUCUAUAGACUGUUUUAAGAGUUUUGGAAUUCUCGGGUGCCAA` is recorded as 0.475.
`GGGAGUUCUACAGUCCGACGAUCACCCCUCCUUCCUGUCUGGUUAGGAAGCCCAAUGCACCCUCUGAGGUCAUCACUUCUGUUCUAUGUUAUUAUCUAGGACUCAACGAGUCAUCUCAAACCAUAUUCUGUGAUGGAAUUCUCGGGUGCCAA`: “RBNS enrichment (R)” 0.346.
`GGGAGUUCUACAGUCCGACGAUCUGUCACUUUGCCUGGAGGUGCUUCAAGCCUUUAACAAGGAGCAGAGAAGAAUUGGAGCCAGACUUUAGUGAACUCAGCUCAGAGUUGUAAGGACCAGCACACUGGUGGCCUGGAAUUCUCGGGUGCCAA`: “RBNS enrichment (R)” 0.269.
